# Measurements of several laboratories.
# Each numbered part is a random draw from the data of one study; scales do not carry over between parts.

# Series 1
# Target: RING finger protein unkempt homolog, zinc fingers 1-6, GST-SBP tag (UNK, Homo sapiens, UniProt Q9C0B0, residues 30-357)
# Chain of UniProt Q9C0B0 (30-357, looked up): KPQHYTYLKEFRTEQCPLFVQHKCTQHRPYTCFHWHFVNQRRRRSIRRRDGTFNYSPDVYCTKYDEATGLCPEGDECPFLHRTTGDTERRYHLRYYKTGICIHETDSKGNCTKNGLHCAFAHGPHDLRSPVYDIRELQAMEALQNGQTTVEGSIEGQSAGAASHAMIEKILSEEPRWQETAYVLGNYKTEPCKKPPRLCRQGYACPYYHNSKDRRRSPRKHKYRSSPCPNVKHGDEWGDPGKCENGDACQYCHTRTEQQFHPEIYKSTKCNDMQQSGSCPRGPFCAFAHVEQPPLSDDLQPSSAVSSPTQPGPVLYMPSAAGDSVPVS
# Technique: RNA Bind-n-Seq
# Form: RNA
# Medium: in vitro
# Concentration: not given
# Notes: RNA with constant flanks, ends assumed
# Baseline: input RNA pool
# Direction: higher = stronger binding
# Shared flanks, not repeated: GGGAGUUCUACAGUCCGACGAUC … CAACAGAGGAUUGAGCAUCA
Strand,bound/input enrichment
CGAUGCCUAAGAUGGGGAGGAGGUUAUGAAGGACAGAAUCUGGCAAAGAUCCUCAAGGAUUCCGAGAUGAGUAAAGUGGUACAUAUGGAUCGAUGGUCUGUGGAGGUGAUACCUCAACAA,0.215 ratio
GUUGGUACUUCUGUAAAAACCUUAGUAUUAGCAUACAGCUCUGCAGUUUCCAGCAAAAUGGUCCGGCAGAUUUUAGAGCUUUGUCCUAACCUGGAGCAUCUGGAUCUUACCCAGACUGAC,18.7 ratio
AUGACUUCCCGCCUGACACCAUCAGUUACUCCGGUGUAUGCACCUGGGUUCCCUUCAGUUGCCGCUCCAAACUUCAGUUUAGGGGUAGAGCCAAAUUCAUUACAGACUCUGAAGCUAAUG,0.218 ratio
GCACCAAAAUAUCAGAUAGGAGAAAGAAUUCGAGUCAUCUUGGACAUGGAAGAUAAGACUUCCGCUUUUGAACGUGGAUAUGAGUUCCUGGGGGUUGCUUUUAGAGGACUUCCAAAGGUC,0.687 ratio
AAAACAGAAAAUGGUGCUGGAGACCAGUAGUUUAGUAAACCAAUUUUUUAUUCAUUUUAAACCGGUUUUAAACGACUUUUGUUUGCGGGGCUUUUAAAAGGAAAACCGAAUUAGGUCCAC,5.66 ratio
CUGUCUGAUAUCAUGGUCUCGCUGGCAAAUGCUUCAACCUUACAGAAUGAUUCCAGUUGGACCGAAACAAUAAGGAAGUUUGUGACGGAGACCCUUAAAGGUGGCACUAGAUUGAACAGU,0.36 ratio
GGCGUGCUCUGCGUGCUGUCCGCGGACAAGAACACGACCCAGCACCCGAACGUGACGACUUCCGCGCCCAUCUCCAACGUAACCUCGGCGCCGGUGACGUCCCUCCCGCUGGUCACCACU,0.109 ratio
GAAAUGGCAACCACAGAGGAUGCUCAGGCCGCAGUGGAUUAUUACACAACCACACCAGCGUCCGUAUUUGGCAAGCCAGUGAGAGUUCAUUUAUCCCAGAAGUAUAAAAGAAUAAAGAAA,0.502 ratio
CAUGGCUGUGCUGGUCGUUCUCCUGUUCUUUCUGGUGGCGGGUGCUUUAGGGAAUGAAUUCCGCAUAUUAAGAUCGCCAGGGUCUGUUGUUUUCCGAAAUGGAAAUUGGCCUAUACCAGG,0.286 ratio
CGGAGUGUGCGGCUAGUCAGAGACAAAGACACAGACAAAUUUAAAGGGUUCUGCUAUGCCGAAUUUGAUGAGGUGGAUUCCCUGAAGGAGGCUCUGACUUAUGACGGUGCACUCUUGGGU,0.146 ratio
CAUCUAUACAAUUUUAAAAAUACUUCCUCAUAGGAUGCUUUGGCCCUUCAUCUAUUUAAUCACCGCUACAUACCUAUUUUUUAUAAGUAGCAGUACACAUUCAAAGGGGUAUUCCUAGCU,6.8 ratio

# Series 2
# Target: Sal-like protein 4, full length isoform B (SALL4, Homo sapiens, UniProt Q9UJQ4-2, residues 1-616)
# Technique: universal PBM
# Form: double-stranded DNA, one strand shown
# Medium: in vitro
# Concentration: not given
# Notes: 8-mer, flanks averaged, mean of replicates
# Direction: higher = stronger binding
# Residues (chain): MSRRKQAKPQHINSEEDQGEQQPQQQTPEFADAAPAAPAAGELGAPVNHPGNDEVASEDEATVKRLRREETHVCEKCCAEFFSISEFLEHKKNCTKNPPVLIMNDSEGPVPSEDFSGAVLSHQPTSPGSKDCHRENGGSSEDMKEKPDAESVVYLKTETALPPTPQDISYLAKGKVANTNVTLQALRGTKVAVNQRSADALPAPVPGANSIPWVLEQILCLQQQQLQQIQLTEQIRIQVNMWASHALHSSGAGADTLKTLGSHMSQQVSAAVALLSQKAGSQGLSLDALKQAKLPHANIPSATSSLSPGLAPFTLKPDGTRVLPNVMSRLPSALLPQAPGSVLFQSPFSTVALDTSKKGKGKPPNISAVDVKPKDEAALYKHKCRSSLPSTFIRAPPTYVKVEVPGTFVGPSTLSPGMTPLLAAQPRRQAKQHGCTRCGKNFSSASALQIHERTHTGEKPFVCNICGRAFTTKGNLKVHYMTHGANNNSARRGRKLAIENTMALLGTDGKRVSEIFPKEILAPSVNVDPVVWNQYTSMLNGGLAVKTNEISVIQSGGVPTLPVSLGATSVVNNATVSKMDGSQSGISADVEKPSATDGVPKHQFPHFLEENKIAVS
Strand,E-score
ATGAACAG,0.13
GCCAACCA,-0.16
CAAAACTA,0.225
AGAGTGGC,-0.197
AACTCGGG,-0.307
GACCAGAC,-0.21
GCCTCACA,-0.0223
ACAGTGCG,-0.181
AGGGTGTA,0.0724
AGGACAGG,-0.251
CCGGACAC,-0.311
GGACATAA,0.199
AACCGTGC,-0.0605
CCATAATC,0.246
ATCGAATC,-0.0742
AACATGGT,0.096
AGCACGGA,-0.23
AAACCGGG,-0.287
ACGCGGAT,-0.129

# Series 3
# Target: Histone acetyltransferase KAT6A, both winged helices, GST fusion (KAT6A, Homo sapiens, UniProt Q92794, residues 1-181)
# Technique: protein binding microarray
# Form: double-stranded DNA, one strand shown
# Medium: in vitro
# Concentration: not given
# Notes: 8-mer, flanks averaged, mean of 2 arrays, mostly near background
# Baseline: not given
# Direction: higher = stronger binding
# Target sequence (chain): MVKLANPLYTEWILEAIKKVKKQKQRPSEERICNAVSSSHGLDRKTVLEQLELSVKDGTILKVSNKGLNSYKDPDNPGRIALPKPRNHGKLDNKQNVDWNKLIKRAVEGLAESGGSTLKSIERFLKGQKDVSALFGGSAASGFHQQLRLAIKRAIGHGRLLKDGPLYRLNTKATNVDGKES
Strand,E-score
CGTCAGAA,-0.00354
CCCCGTGA,0.0414
TAACAGTA,-0.0794
TCCCCGAA,-0.00317
CTTTCTCA,0.0072
ACTTACTC,-0.0968
CGAATCTA,0.00231
AAAAGAGG,-0.203
CTCCAGTA,-0.0893
GTGCTACA,-0.277
ATGGTAAA,-0.0112
CTACGCGA,0.17
ATAAGCTG,-0.0259
CGATTGTC,0.0871
GCCCCTAA,-0.166
TTAGTGAA,-0.101

# Series 4
# Target: RNA binding protein fox-1 homolog 2, RRM domain, GST-SBP tag (RBFOX2, Homo sapiens, UniProt O43251-10, residues 100-194)
# Technique: RNA Bind-n-Seq
# Form: RNA
# Medium: in vitro
# Concentration: 365 nM
# Notes: natural RNA segment, single round, ends assumed
# Baseline: no-protein control
# Direction: higher = stronger binding
# Shared flanks, not repeated: GGGAGUUCUACAGUCCGACGAUC … UGGAAUUCUCGGGUGCCAA
# Residues (chain): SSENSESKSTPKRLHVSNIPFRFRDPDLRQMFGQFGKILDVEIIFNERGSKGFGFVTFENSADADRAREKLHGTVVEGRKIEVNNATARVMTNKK
Strand,RBNS enrichment (R)
AAACACUCUUCAGAGAAAUCUGCAUUCUAUUUCUCAUGUAUAAAACUAGGAAUCCUCCAACCAGGCUCCUGUGAUAGAGUUCUUUUAAGCCCAAGAUUUUUUAUUUGAGG,3.75
CUCUGAGCACAUCCAGAAGUGAUAACCUGACCCUCCACACCAAAGACACCCUGGUGCUGCUGCUGGUGAGACUGGUGUCCAAGGCAGGGCCCAGCAGAAACUGCAGCCUG,0.358
CCCUUCCCUGCCUGUGUCUCUUCCCAAACCCCUGUAGGGGUGGUGAGAAGAGGAGGGGGGGAGGGGACACGAUCCCUCCUCAGGCAUCUGGGAAGGCCUUGCCCCCACGG,0.222
CCUUGGGGAUCUGGGAGCUGAGCACUUGUCUAUACUUGUUCCUAAUUUUCCAAGUAUUUCUCUUGAAACUGCCAGUGCCUGAACUGUUGGGGCCAGGAUUUUCCCUGGUC,0.371
AACACUAAAAUGGAUUAGAAUUAUCUUAAAAGAUCCUUUAUAAAAUGACUUGUAUUGAUUGGUUUAUAACUUCACACAGGGGUGACAUAAAUGUAUAUCUUGAAAAAGAU,0.597
CAUGGCUUCCCCAGCCCAGGGAGGGUAUCAGUAUCAUUCAUUCUCUCUCCCCUCACUGGUAUGGGUUCAGAGCAAUGCCUAGGGCCCCUCUCUGCUCCCCUGCCUAGUGG,0.32
GGGAGGGUUUUCGGGGGGUUCGGCGUCGCACCUUGGGGCCCCCCGCAGCCGUGUAGGGGGCCUCCCAUCUGCUAAGCGUUUUUCCGUUGAGCCGCUCCAAAAACACUAAG,0.308
UAAUGAGAAUGAAAAGCACAUGGGUUGAUGGGAAGGGACAAGAUUACCACGUUAGGAGGGUGAGCAGCCCUCUGCUAUGUGCCCAGGACCCUGCCUGGACAUUGCAUUUC,2.08
CUCAUGGCUCCAUCCUUUUGGUCCCUCGCCACUACCCUUGAAGCUGGCUUCAGUUCCCUGGCUGCUGCUUUGCCUCCUGAAAGCCACUCUGUAGGACCAAGCACUCGGGG,0.305
CAUGUUAGCCAGGAUGGUCUCGAUCUCCUGACCUCGUGAUCCACUCACCUCAGCCUCCCAAAAUCCUGGGGUUACAGAUGUGAGCUACCACUCACGGCCCAAAUCUUCUU,0.249
UAGGACUUAACCAAAUAACCAGUCCAUGAAUAAGCAACCCCAUUACCACAGACAGUACCCACGCUACCAGUCUGAUUAUAAAGGGAGACACUUUAUUUUUUCACAAUUAA,0.532
CUACUACCUCACCGCCAAGUCCUCCCCCAGCUGUUACCACAUGAGGGAAUACAAGGUGCUAGGUACCCUCCUUCCUCGUUGGCCACUAAGAGGUCUUAGAAACAUAGCCU,0.338

# A few entries again (series 3):
Strand,E-score
CCCCGTGA,0.0414
ACTTACTC,-0.0968
CGTCAGAA,-0.00354
TCCCCGAA,-0.00317
ATAAGCTG,-0.0259
